Experimental data from different studies.
Every numbered part comes from another study and shows a few of its results, in no order.

Series 1
Target: RNA binding protein fox-1 homolog 2, RRM domain, GST-SBP tag (RBFOX2, Homo sapiens, UniProt O43251-10, residues 100-194)
Method: RNA Bind-n-Seq
Form: RNA
Matrix: in vitro
Concentration: 365 nM
Notes: natural RNA segment, single round, ends assumed
Reference: no-protein control
Direction: higher = stronger binding
Residues (chain): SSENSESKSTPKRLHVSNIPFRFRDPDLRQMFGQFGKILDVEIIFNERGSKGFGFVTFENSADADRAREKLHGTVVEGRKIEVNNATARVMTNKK
Oligonucleotide | RBNS enrichment (R)
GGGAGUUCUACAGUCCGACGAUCAAUUACAAGCUGACAGUGUACAAUGUUCCAACAGAAAUAUUAUCAUAACAUGCCUUUUUUGUAUCAAAUGUACUAAGACUUGCCUAUAUAUAGUGCCACUGUGCCUUCUCUGGAAUUCUCGGGUGCCAA | 0.274
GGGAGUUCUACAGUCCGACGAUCCUACAUCAGCUGACCUGAAACUCAGGGGACUCUGGAACACCAUGGACCCUGGGGGCUGUGCCCCCAUCUCCUCCCCACCCCAGGUCUAGUGGCCCCACCCUCCAUUCCGGUGGAAUUCUCGGGUGCCAA | 0.299
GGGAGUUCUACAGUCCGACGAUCGGGUUGGAAUGUGGAACUGCAGCCUCAGCCCAUCUGGCAGAGUCCCAGGAACUCGGAGACUGGCACAGCUGCUUUGUCUGCCAGUGCCGUGUGUUGUCAUGUCACUCACCUGGAAUUCUCGGGUGCCAA | 0.341
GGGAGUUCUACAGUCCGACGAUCCACACCACAAAUCUGCAGUUCAUUCUGUUUAUCCCAGGCAUUAAAUUCCUAAUUUCUCUAGAUAUUUAAGAAUGGCACACACUUUAAAUAUUUAUGGGUGAAUUGAUGCCUGGAAUUCUCGGGUGCCAA | 0.736
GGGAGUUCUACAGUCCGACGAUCCACCAUGAUCUACGGGACUGUGCUUGGUCCUUUGCUUCUGCCCGUUCCCAUCUCACCUCACCAUUCCGCUAUAAGGCUUUUUAGCAUUUUAGGGCCAGGAGAGAGAGAGAUGGAAUUCUCGGGUGCCAA | 0.221
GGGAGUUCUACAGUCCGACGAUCAUUUUGCAGCAGUACCAUCCCACUGAUAUCACGGGCCCGCUCAACCUCUCAGAUCCCUCGGUCAGCACCGUGGUGUGAGGCCCCCGGAGGCGCCCACCUGCCCAGUUAGCUGGAAUUCUCGGGUGCCAA | 0.217
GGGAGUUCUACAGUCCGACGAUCUAGUCUGGGUGGUGAACGGGCUGACACUGCUGUCACUGGUUCUUAGGACCUAAGGUGGUCCUCAUAAACUCCUGGGGGAAGCUGGGAGCAACUUCCUGGGAAGCUAAUUUUGGAAUUCUCGGGUGCCAA | 0.584
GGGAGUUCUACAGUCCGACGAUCCUGUAUGAAACAAAAACAAAACCUGAUAUAUGCAAUAUCUGUCUGUCUGUCUGUACCCAUGGGCCUGGCUCAGCCAUUGGAGGCCCAGCCGAGGGUCCGGCAGGGCACAGUGGAAUUCUCGGGUGCCAA | 0.443

Series 2
Target: RING finger protein unkempt homolog, zinc fingers 1-6, GST-SBP tag (UNK, Homo sapiens, UniProt Q9C0B0, residues 30-357)
UniProt Q9C0B0, sequence (30-357, looked up): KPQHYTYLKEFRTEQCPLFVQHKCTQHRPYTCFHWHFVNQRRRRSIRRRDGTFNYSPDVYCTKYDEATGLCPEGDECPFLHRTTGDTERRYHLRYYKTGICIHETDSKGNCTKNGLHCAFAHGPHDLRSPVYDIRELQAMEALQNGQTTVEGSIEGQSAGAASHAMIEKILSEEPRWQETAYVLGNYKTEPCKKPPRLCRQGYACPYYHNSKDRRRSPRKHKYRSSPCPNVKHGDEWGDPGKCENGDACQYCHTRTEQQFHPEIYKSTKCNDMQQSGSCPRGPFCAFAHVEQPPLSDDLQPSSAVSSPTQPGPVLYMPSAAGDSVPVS
Method: RNA Bind-n-Seq
Form: RNA
Matrix: in vitro
Concentration: not given
Notes: RNA with constant flanks, human and mouse sites, ends assumed
Reference: input RNA pool
Direction: higher = stronger binding
Oligonucleotide | bound/input enrichment [ratio]
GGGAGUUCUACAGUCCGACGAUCACAUGAAUUUUUAACCUCCAUAAGGAAUGAUACUUGCUCUUGAUUUUAUUAGUUGCAUUUUGUAACAGGUUGGAAAAAUUAGGUAAUGGAGAACUUUGGCAUACCACUUUUGUUUCUUUUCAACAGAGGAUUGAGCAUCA | 0.391
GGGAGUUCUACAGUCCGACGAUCAUCUGUUUCACUCUACUAUACUGGAGAGAAAGGUCAAAGGCAAGAGAGAACUGGAAAGACCAGCACUUGGAGUGGUAAGUUAAAGGGUUUAUUGUGUAGUGGGAACAGGAAUCAUUUGUACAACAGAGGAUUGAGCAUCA | 0.472
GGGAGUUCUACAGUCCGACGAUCGCUUGUUUUACUGAAGGAUGUAUUAAAAAGUUUCCAUUCUGUCAAGUAAGUACAGAAGAAGGCAAAGGGAAGAUCUGGUGGAAUCUUCGAAAAACCUGCUACAGUAUUGUUGAGCACAACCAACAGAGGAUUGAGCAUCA | 0.481
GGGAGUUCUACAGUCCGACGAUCCCGGACGACGGGCUCACAGCGCAGCAGCUCUUCAACUGCGGGGACGGCCUCACCUACAAUGAUUUUCUCAUUCUUCCUGGGUAUAUCGACUUCACUGCAGAUCAGGUGGACUUGACGUCUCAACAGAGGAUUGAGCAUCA | 0.186
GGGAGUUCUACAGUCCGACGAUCGUUGUCAGUGUGGACAAAGGAAGCAGAGCUGUGCUGUGGGCACAGCCUUGAUGCUGCACCCUUAGGAGCACCGUGGGACCCCACGGCCCAUCUUGGAGAAUGAUGUGUCCUCCCAGAAAACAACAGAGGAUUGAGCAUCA | 0.126
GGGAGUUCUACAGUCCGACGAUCGACUCUGAAGAUGCACUUUCUGUUCAAUUUGACAUGAAAUUGGCUGAUGUGGGAGGAGAUCUUAAGCAUGUCAUGUCUGAUAGCUCUUUGGAUUUACCAACAGUUAGUGGCCAGCAUCCUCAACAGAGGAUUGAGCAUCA | 0.207
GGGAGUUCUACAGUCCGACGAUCUAAACUGGUGCUUUAUGUACAUGAGAUGUACUAAAAUAAGUAAUAUAGAAUUUUUCUUGCUAGGUAAAUCCAGUAAGCCAAUAAUUUUAAAGAUUCUUUAUCUGCAUCAUUGCUGUUUGUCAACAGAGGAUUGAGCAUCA | 0.297
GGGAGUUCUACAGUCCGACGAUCGAAGUUUGUAUCAAUCCAUACCACUAUAAGAGAGUGGAGAGUCCAGUCUUACCUCCAGUAUUAGUGCCUCGUCACAAUGAAUUCAAUCCACAACACAGCCUUCUGGUUCAGUUCAGGAACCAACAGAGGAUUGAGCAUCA | 0.203

Series 3
Target: Interferon regulatory factor 5, full length, phosphomimetic (IRF5, Homo sapiens, UniProt Q13568-2, residues 1-514, S451D/S453D/S456D/S462D)
Method: protein-binding microarray
Form: double-stranded DNA, one strand shown
Matrix: in vitro
Concentration: 940 nM top
Notes: 60-bp whole probe
Added: salmon DNA 0.4 mg/ml
Reference: random background probes
Direction: higher = stronger binding
Shared flanks, not repeated: GCCTAGCAC … GTCTTGATTCGCTTGACGCTGCTG
Oligonucleotide | fitted relative affinity [z-score]
GACGATTTCGGGTATCGAGTCGTGCTA | 2.45
GAAAAATCTGGAACTAACAGGTGCTAG | -0.373
TTAGGTTTCCTTTCCCCTTAGTGCTAG | 2.34
GAAGCTTCTTTTTTATTCTAGTGCTAG | 0.713
GACGGTTTCGGGTCTCGGGACGTGCTA | 9.22
TCAAATTAGAATTTAAAACTGTGCTAG | -0.388
TCAGGTTGAACATGAACACTGTGCTAG | -0.468
GACGATTTCATTATCGAGACGTGCTAG | 0.834
TTTATTTTTTTTATTTATAAGTGCTAG | 1.56
TCCTGTATGGATGTGTCTTAGTGCTAG | -0.337
TTAGGTTTCGGGACTAGGTTAGTGCTA | 7.76
GACGATATCGGCTTTCGAGACGTGCTA | 0.394
TTTGCTTTCCTTTATGTACTGTGCTAG | 1.11
TTAGGACTGGACACTGGGTGAGTGCTA | -0.605
GACGGTTTCGGGTATCGGGATGTGCTA | 9.64
TCACTTCTGGTCTTCTGACTGTGCTAG | 0.582
TTAGATCTCGGTATCGGTTAGTGCTAG | 5.53
GACGGTATCAGGACTGGGGACGTGCTA | 0.909
GACGGACTGCTACTGCTGACGTGCTAG | -0.617

Series 4
Target: Histone acetyltransferase KAT6A, winged helix 1, GST fusion (KAT6A, Homo sapiens, UniProt Q92794, residues 1-85)
Method: protein binding microarray
Form: double-stranded DNA, one strand shown
Matrix: in vitro
Concentration: not given
Notes: 8-mer, flanks averaged, mean of 2 arrays, mostly near background
Reference: not given
Direction: higher = stronger binding
Residues (chain): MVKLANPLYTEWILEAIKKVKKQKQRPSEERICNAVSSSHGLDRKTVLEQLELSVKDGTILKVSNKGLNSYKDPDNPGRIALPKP
Oligonucleotide | E-score
GCCCCTGA | -0.0442
CGCTGGAC | 0.102
CCACGCCA | -0.225
CGACACGA | -0.095
AAGAGTGT | -0.251
GCCGCTAC | 0.381
CTCCAGCA | -0.212
GATCGCCA | 0.0342
GACGCCGC | 0.436
AGTTACCA | 0.00879
ACGCCGGA | 0.204
CGCCTAGC | 0.288
AATCAGTA | -0.148
AAGGTGGG | -0.226
CAGACCGC | 0.252
AGATTTAC | -0.0901
CCTTTCGC | 0.199
AGCCAACT | -0.244
ACCGCCTC | 0.223
CACCCTGG | -0.213
CGATTAAA | -0.00329
GCAGACGC | 0.19

A few entries again (series 4):
Oligonucleotide | E-score
CGCTGGAC | 0.102
CAGACCGC | 0.252
GATCGCCA | 0.0342
AGATTTAC | -0.0901
